Measured values pooled from the literature.
Lines come from different studies, so protocols differ. ± gives the spread as reported.

For [NH-]c1c([I+]c2ccccc2)c(=O)oc2ccccc12, “maximal non-toxic concentration” read 1 µg/mL (BHK-21; MTT).
With CCCCCCCCCCCC(=O)NCCC(=O)N[C@H](CCCNC(=N)N)C(=O)N[C@H](CCCNC(=N)N)C(=O)N[C@H](CCCNC(=N)N)C(=O)N[C@H](CCCNC(=N)N)C(=O)N[C@H](CCCNC(=N)N)C(=O)N[C@H](CCCNC(=N)N)C(=O)N[C@H](CCCNC(=N)N)C(=O)N[C@H](CCCNC(=N)N)C(=O)N[C@H](CCCNC(=N)N)C(=O)N[C@@H](CCCCNC(=S)Nc1ccc2c(c1)C(=O)OC21c2ccc(O)cc2Oc2cc(O)ccc21)C(N)=O the peak area was 32.3% (Jurkat; RP-HPLC fluorescence, item: intact peptide; culture medium; 6 h).
For CC(=O)[C@@]12C[C@@H](CC=C(C)C)[C@](C)(CCC=C(C)C)C(C(=O)c3ccccc3)=C1O[C@]1(C)CCCC(C)(C)[C@H]1C2 (relative stereo), the viability was 97% (3T3-L1; MTT; concentration not given, 72 h, together with: insulin 30 nM).
For CC(=O)OC[C@H]1O[C@@H](Sc2sc(C(=O)c3ccc(Br)cc3)c(N)c2-c2nc3ccccc3s2)[C@H](OC(C)=O)[C@@H](OC(C)=O)[C@H]1OC(C)=O, “maximum non-toxic concentration” read 90 µg/mL (BGM; cytotoxicity; 72 h).
The IC50 of Cc1[nH][n+]([Pd-2]([Cl])([Cl])[n+]2[nH]c(C)c(CSCc3ccccc3)c2C)c(C)c1CSCc1ccccc1 is reported as 0.42 ± 0.03 µM (Jurkat; cytotoxicity, 7-AAD flow cytometry; 24 h).
For COC(C)(C)/C=C/C[C@@](C)(O)[C@H]1CC[C@]2(C)[C@@H]1CC[C@@H]1[C@@]3(C)CCC(=O)C(C)(C)[C@@H]3CC[C@]12C, the IC50 was 24.5 µM (HEK293-A; cell growth or viability, SRB).
For CC(=O)[O-].Nc1ccc(C([O-])=NN=Cc2ccc(OCC(=O)Nc3ccc(Cl)cc3)cc2)cc1.[Co+2], the IC50 was 31 ± 2.9 µM (WISH; cytotoxicity, MTT; 24 h).
CCOC(=O)c1cc(-c2nc3ccccc3s2)c(=O)n(NS(=O)(=O)c2ccccc2)c1N — result for “maximum non-toxic concentration”: 110 µg/mL (FRhK-4; trypan blue; 72 h).
For Nc1c(C(=O)c2ccc(Cl)cc2)sc(S)c1-c1nc2ccccc2s1, the non-toxic concentration was 80 µg/mL (FRhK-4; 72 h).
COc1cc(O)cc(CCc2cc(Cl)ccc2O)c1: “sensitization to 5-fluorouracil” 2.75 fold (HCT-116 5-FU-resistant; SRB; 5 µM, 24 h pretreatment, together with: 5-fluorouracil 72 h).
Cc1[nH][n+]([Pd-2]([Br])([Br])[n+]2[nH]c(C)c(CSC3CCCCC3)c2C)c(C)c1CSC1CCCCC1 gave an IC50 of 0.19 ± 0.02 µM (Jurkat; cytotoxicity, 7-AAD flow cytometry; 24 h).
For NC(COc1cc(C(F)(F)F)cc(C(F)(F)F)c1)c1ccccc1 (stereo not drawn), “beating cessation concentration” read 133 µM (normal iPSC cardiomyocytes; kinetic imaging cytometry; 5 min, pH 7.4).
Under “maximum non-toxic concentration”, O=C(Nc1cc(F)c(F)c(F)c1)c1ccc(F)c(S(=O)(=O)N2CCC(NC(=O)C3CCN(C(=O)CC45CC6CC(CC(C6)C4)C5)CC3)CC2)c1 is recorded as 60 µmol/L (HepAD38; cytopathic effect; human hepatoma cells).
Under “maximum non-toxic concentration”, Cc1ccc(S(=O)(=O)Nn2c3c(cc(-c4nc5ccccc5s4)c2=O)CCCCCC3)cc1 is recorded as 120 µg/mL (BGM; trypan blue; 72 h).
For CC(=O)O[C@@H]1[C@@H](OC(C)=O)[C@H](Sc2sc(C(=O)c3ccc(Cl)cc3)c(N)c2-c2nc3ccccc3s2)OC[C@H]1OC(C)=O, “maximum non-toxic concentration” read 80 µg/mL (BGM; cytotoxicity; 72 h).
CC(C)[C@H]1c2ccc(F)cc2CC[C@@]1(CCN(C)CCCc1nc2ccccc2[nH]1)OC(=O)C1CC1 has an IC50 of 13 µM (IMR-90; cell growth or viability, resazurin; 7 h).
Under “maximum non-toxic concentration”, O=C(CC12CC3CC(CC(C3)C1)C2)NC1CCN(S(=O)(=O)c2cc(C(=O)Nc3cc(F)c(F)c(F)c3)ccc2F)CC1 is recorded as 4 µmol/L (HepAD38; cytopathic effect; human hepatoma cells).
CC(=O)OC[C@H]1O[C@@H](Sc2sc(C(=O)c3ccc(C)cc3)c(N)c2-c2nc3ccccc3s2)[C@H](OC(C)=O)[C@@H](OC(C)=O)[C@@H]1OC(C)=O has a non-toxic concentration of 90 µg/mL (FRhK-4; 72 h).
C=C(C)[C@@H]1CC[C@]2(C(N)=O)CC[C@]3(C)[C@H](CC[C@@H]4[C@@]5(C)CCCNC(C)(C)[C@@H]5CC[C@]43C)[C@@H]12 gave a CC50 of 5.16 µM (C-33 A; cell viability, CellTiter-Glo).
With COc1cc(OC)c(OC)cc1/C=C/C(=O)c1ccc2ccccc2c1 the GI50 was 34.9 µM (HEK293 empty vector pcDNA3.1; cell growth, MTT; 72 h, 10% FBS).
For CC(C)=CCc1cc(-c2coc3cc(O)c(CC=C(C)C)c(O)c3c2=O)ccc1O, the viability was 79.6 ± 1.8% (3T3-L1; MTT; concentration not given).
The IC50 of O=c1[nH]c2ccccc2nc1/C=C/c1ccc2ccccc2n1 is reported as > 100 µM (HL7702; cell viability, MTT; 72 h).
For CC(=O)O[C@@H]1[C@@H](OC(C)=O)[C@H](Sc2sc(C(=O)c3ccc(Br)cc3)c(N)c2-c2nc3ccccc3s2)OC[C@@H]1OC(C)=O, “maximum non-toxic concentration” read 90 µg/mL (BGM; cytotoxicity; 72 h).
COc1ccc2c(oc3c4ccc(O)cc4oc(=O)c23)c1CC=C(C)C has a viability of 34.2 ± 0.9% (3T3-L1; MTT; concentration not given).
